Experimental data pooled from the literature.
Compare with care: the assays were run in different laboratories. “And” joins repeats or separate records; there may be more than shown. Numbers after ± are the reported error. Converted amounts (≈) assume the structure as drawn.
BCHE: Cholinesterase (BCHE, Homo sapiens, UniProt P06276)
UniProt P06276, sequence (whole entry, looked up): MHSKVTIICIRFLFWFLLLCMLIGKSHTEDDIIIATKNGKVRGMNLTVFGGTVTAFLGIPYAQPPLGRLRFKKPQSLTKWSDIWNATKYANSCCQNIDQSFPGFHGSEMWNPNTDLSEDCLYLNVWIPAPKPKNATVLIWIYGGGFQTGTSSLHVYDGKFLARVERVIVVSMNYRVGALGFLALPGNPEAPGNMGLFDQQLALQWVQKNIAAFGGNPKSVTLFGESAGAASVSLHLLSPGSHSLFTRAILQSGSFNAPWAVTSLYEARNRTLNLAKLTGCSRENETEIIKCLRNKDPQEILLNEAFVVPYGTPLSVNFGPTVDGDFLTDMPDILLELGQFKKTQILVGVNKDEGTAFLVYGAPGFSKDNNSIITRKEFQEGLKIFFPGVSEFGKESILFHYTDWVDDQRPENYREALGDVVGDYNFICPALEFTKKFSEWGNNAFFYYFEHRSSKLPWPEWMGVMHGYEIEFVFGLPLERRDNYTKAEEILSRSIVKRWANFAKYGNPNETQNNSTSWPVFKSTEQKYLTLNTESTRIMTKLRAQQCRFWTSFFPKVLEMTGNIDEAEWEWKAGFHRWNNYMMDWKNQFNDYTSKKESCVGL
UniProt Q15759, sequence (whole entry, looked up): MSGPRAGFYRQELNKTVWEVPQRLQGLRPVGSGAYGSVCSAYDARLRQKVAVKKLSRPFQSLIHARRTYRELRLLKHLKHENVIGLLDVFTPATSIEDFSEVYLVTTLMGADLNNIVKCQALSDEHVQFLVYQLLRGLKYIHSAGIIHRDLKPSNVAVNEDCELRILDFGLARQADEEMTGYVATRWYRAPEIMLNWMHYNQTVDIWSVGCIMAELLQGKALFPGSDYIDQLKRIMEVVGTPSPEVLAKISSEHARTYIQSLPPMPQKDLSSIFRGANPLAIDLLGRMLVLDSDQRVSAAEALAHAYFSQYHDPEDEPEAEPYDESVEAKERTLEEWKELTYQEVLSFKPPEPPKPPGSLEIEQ
UniProt P42685, sequence (whole entry, looked up): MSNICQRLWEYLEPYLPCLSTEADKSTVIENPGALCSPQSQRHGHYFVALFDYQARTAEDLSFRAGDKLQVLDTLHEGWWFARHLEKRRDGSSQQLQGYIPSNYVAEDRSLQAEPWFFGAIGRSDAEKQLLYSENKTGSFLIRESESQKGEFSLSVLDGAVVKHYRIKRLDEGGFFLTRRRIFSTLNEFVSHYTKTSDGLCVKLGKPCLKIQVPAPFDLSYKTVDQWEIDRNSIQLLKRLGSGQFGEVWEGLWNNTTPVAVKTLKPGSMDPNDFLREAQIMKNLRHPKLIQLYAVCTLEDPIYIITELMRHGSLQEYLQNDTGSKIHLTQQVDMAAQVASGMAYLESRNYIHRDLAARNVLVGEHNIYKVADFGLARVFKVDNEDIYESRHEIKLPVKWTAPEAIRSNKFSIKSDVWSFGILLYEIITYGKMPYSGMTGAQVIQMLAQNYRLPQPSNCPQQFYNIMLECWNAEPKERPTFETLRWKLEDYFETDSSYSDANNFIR

SMILES | tested on | test | test system | setting | scale | quantity | result
Cc1cc(Nc2ccc(Cl)c(Cl)c2)n2nc(C)nc2n1 | Plasmodium falciparum | parasite growth | – | – | – | EC50 | 7.42 ± 6.8 µM
C[C@@H](O)[C@@H]1NC(=O)[C@@H](CCCCN)NC(=O)[C@H](CCCN)NC(=O)[C@@H](CCCN)NC(=O)[C@H](CO)NC(=O)[C@H](Cc2c[nH]c3ccccc23)NC(=O)[C@@H](Cc2c[nH]c3ccccc23)NC1=O | Acanthamoeba castellanii | – | – | trophozoites | – | IC90 | > 16 µg/mL
C#CCN(C)[C@H](C)Cc1ccccc1 | – | footprint test | MPTP-induced Parkinson's disease mouse model | 10 mg/kg, trial 1 | – | corridor crossing time | 6.87 s and 5.41 s and 3.47 s and 8.21 s and 5.71 s and 7.14 s and 4.28 s
O=S(=O)(c1cccc2c(Cl)cccc12)N1CCCNCC1 | Plasmodium falciparum | – | W2 | – | – | IC50 | 1.26 µM
CC(=O)c1c(Nc2c(C)cc(C)cc2C)oc(C)cc1=O | Plasmodium falciparum | parasite growth, SYBR Green | 3D7 wild type | 72 h | – | EC50 | 1.48 ± 0.7 µM
CC[C@H](C)[C@@H]1NC(=O)[C@@H]2CCCN2C(=O)[C@H](CC(C)C)NC(=O)[C@H](CC(C)C)NC(=O)CNC(=O)[C@@H](NC(=O)[C@@H](NC(=O)[C@H](CC(=O)O)NC(=O)CNC(=O)[C@@H](NC(=O)[C@H](C)NC(=O)CNC(=O)[C@H](CCCCN)NC(=O)[C@H](CC(C)C)NC(=O)[C@H](CC(C)C)NC(=O)[C@H](CCCCN)NC(=O)CNC(=O)[C@@H](NC(=O)[C@@H](N)CC(C)C)C(C)C)C(C)C)C(C)C)CSSC[C@@H](C(=O)O)NC1=O | – | RNA-seq, measured: Rhd mRNA | mouse traumatic brain injury, frontal cortex and hippocampus | dose not given | reference: TBI plus compound vs TBI | log2 fold change | -2.6
Cc1cccc(C(=O)N2CCN(Cc3cccc(NC(=O)c4cccs4)c3)CC2)c1 | Plasmodium falciparum | parasite growth, SYBR Green | 3D7 DHODH E182D | 72 h | – | EC50 | 1.19 ± 0.22 µM
C[C@@H](O)[C@@H](CO)NC(=O)[C@@H](CCCNC(=N)N)NC(=O)[C@@H]1CCCN1C(=O)[C@@H]1CSSC[C@H](NC(=O)[C@H](Cc2ccccc2)NC(=O)CN2CCN(CC(=O)O)CCN(CC(=O)O)CCN(CC(=O)O)CC2)C(=O)N[C@@H](Cc2ccc(O)cc2)C(=O)N[C@@H](Cc2ccccc2)C(=O)N[C@@H](CCC(N)=O)C(=O)N[C@@H](CC(N)=O)C(=O)N1 [gallium-68 labelled] | – | – | Wistar rat, stomach | intravenous, 8 MBq, 30 min, group mean | – | tissue uptake | 0.35 %ID/g
CC(C)[C@@H]1NC(=O)[C@@H](CCCCN)NC(=O)[C@H](CCCN)NC(=O)[C@@H](CC(=O)O)NC(=O)[C@H](C)NC(=O)[C@H](Cc2c[nH]c3ccccc23)NC(=O)[C@@H](Cc2ccccc2)NC1=O | Naegleria fowleri | – | – | trophozoites | – | IC50 | > 16 µg/mL
CN(C)CCCC1(c2ccc(F)cc2)OCc2cc(C#N)ccc21 (stereo not drawn) | Plasmodium falciparum | – | 3D7 | – | – | IC50 | 10 µM
CC(C)[C@H]1NC(=O)[C@H](CCCNC(=N)N)NC(=O)CNC(=O)[C@@H](Cc2c[nH]c3ccccc23)NC(=O)[C@H](CCCCN)NC(=O)[C@@H](CCCN)NC1=O | Acanthamoeba castellanii | – | – | trophozoites | – | IC50 | 10.5 µg/mL
COC(=O)[C@@H]1[C@H]2C[C@H]3c4[nH]c5ccccc5c4CCN3C[C@@H]2CC[C@@H]1O | Plasmodium falciparum | – | D10 | – | – | IC50 | 3.98 µM
CC[C@H](C)[C@H](NC(=O)[C@H](C)NC(=O)[C@H](CCCCN)NC(=O)[C@H](CC(C)C)NC(=O)[C@H](C)NC(=O)[C@@H](NC(=O)[C@H](Cc1c[nH]cn1)NC(=O)[C@H](CC(C)C)NC(=O)[C@@H](NC(=O)[C@@H](NC(=O)[C@H](CCCCN)NC(=O)[C@H](C)NC(=O)[C@H](C)NC(=O)[C@H](CO)NC(=O)[C@H](CCCCN)NC(=O)[C@H](Cc1ccccc1)NC(=O)[C@@H](NC(=O)[C@H](CCCCN)NC(=O)[C@H](CC(C)C)NC(=O)[C@H](Cc1ccccc1)NC(=O)[C@H](CO)NC(=O)[C@H](CCCCN)NC(=O)[C@H](Cc1c[nH]c2ccccc12)NC(=O)[C@H](CCCCN)NC(C)=O)[C@@H](C)O)[C@@H](C)O)C(C)C)[C@@H](C)O)C(=O)N[C@@H](CO)C(=O)N[C@@H](CO)C(N)=O | Citrobacter | – | – | 20 strains | – | MBC50 | 8 µg/mL (≈ 2.73 µM)
COc1cc(N)c(Cl)cc1C(=O)NC[C@@H]1CCN2CCC[C@@H]12 | BCHE | inhibitor, fluorometric | – | – | – | IC50 | 8.14 ± 1.84 µM
COc1cc2c(Oc3ccc4[nH]c(C)cc4c3F)ccnc2cc1OCC1(N)CC1 | – | – | paediatric recurrent refractory sarcoma | 12 mg | – | Nausea incidence | 9.1%
O=C(Nc1cccc(CN2CCN(C(=O)c3cccc(Cl)c3)CC2)c1)c1ccco1.O=C(O)C(F)(F)F | Plasmodium falciparum | parasite growth, SYBR Green | – | 72 h | reference: 3D7-E182D over 3D7 | EC50 ratio | 15
C=CCc1ccccc1OCC(O)CNC1(C)CCC(C(C)(C)NC(=O)CBr)CC1 (stereo not drawn) | Plasmodium falciparum | – | 7G8 | – | – | IC50 | 3.16 µM
CO[C@H]1C[C@@H]2CC[C@@H](C)[C@@](O)(O2)C(=O)C(=O)N2CCCC[C@H]2C(=O)O[C@H]([C@H](C)C[C@@H]2CC[C@@H](OC(=O)NCCOCCOCCOCCOCCOCCOCCOCCOCCC(=O)N3CCc4cc(Cn5nc(-c6ccc7oc(N)nc7c6)c6c(N)ncnc65)ccc4C3)[C@H](OC)C2)C[C@@H](O)[C@H](C)/C=C(\C)[C@@H](O)[C@@H](OC)C(=O)[C@H](C)C[C@H](C)/C=C/C=C/C=C/1C | – | phase 1 dose escalation, measured: fatigue | advanced solid tumour patients | intravenous, 10 mg weekly, grade ≥3 | – | TRAE incidence | 12.5%
C[C@H]1CN(c2n[nH]c3nc(N[C@H]4CC[C@H](NS(=O)(=O)CCC(F)(F)F)CC4)ncc23)CCO1 | Mitogen-activated protein kinase 11 (MAPK11, Homo sapiens, UniProt Q15759) | competitor, Kinobeads competition | HEK293, K562, placenta extract | 0.16 µM | reference: vehicle | relative abundance | 0.65
CC1=C(C)C(=O)C(CCCCC#CCCCC#CCO)=C(C)C1=O | Plasmodium falciparum | – | GB4 | – | – | IC50 | 3.16 µM
CC(C)[C@@H]1NC(=O)[C@@H](CCCN)NC(=O)[C@H]([C@@H](C)O)NC(=O)[C@H](Cc2ccccc2)NC(=O)[C@@H](Cc2ccccc2)NC(=O)[C@H](Cc2ccccc2)NC(=O)[C@@H](CCCN)NC1=O | Naegleria fowleri | – | – | trophozoites | – | IC50 | > 16 µg/mL
C[C@@H](C1=C(CCN(C)C)Cc2ccccc21)c1ccccn1.O=C(O)/C=C\C(=O)O | BCHE | inhibitor | – | – | – | efficacy | -97.3 ± 6.58%
COC(=O)[C@H]1[C@H]2C[C@@H]3c4[nH]c5cc(OC)ccc5c4CCN3C[C@H]2C[C@@H](OC(=O)c2cc(OC)c(OC)c(OC)c2)[C@@H]1OC | Plasmodium falciparum | – | GB4 | – | – | IC50 | 2 µM
CNC(=O)c1cc(Cl)cc(C)c1NC(=O)c1cc(Br)nn1-c1ncccc1Cl | Spodoptera litura | leaf-dip | third instar larvae | 12.5 ppm, 96 h | – | mortality | 100%
NCCCC[C@@H]1NC(=O)[C@@H](CCCN)NC(=O)[C@@H](Cc2ccccc2)NC(=O)[C@H](Cc2ccccc2)NC(=O)CNC1=O | Naegleria fowleri | – | – | trophozoites | – | IC50 | > 16 µg/mL
C[C@@H]1CC[C@H]2[C@@H](C)C(=O)O[C@@H]3O[C@@]4(C)CC[C@@H]1[C@]32OO4 | Plasmodium falciparum | – | GB4 | – | – | IC50 | 0.005 µM
CC(C)[C@@H]1NC(=O)[C@@H](CCCCN)NC(=O)[C@H](CCCCN)NC(=O)[C@@H](CCCN)NC(=O)[C@H](C)NC(=O)[C@H](Cc2c[nH]c3ccccc23)NC(=O)[C@@H](Cc2ccccc2)NC1=O | Naegleria fowleri | – | – | trophozoites | – | IC90 | > 16 µg/mL
COc1ccc(N2C(=O)N(c3c(C)cccc3Cl)Cc3cnc(Nc4ccc(C5CCN(C)CC5)cc4OC)nc32)nc1 | Tyrosine-protein kinase FRK (FRK, Homo sapiens, UniProt P42685) | kinase activity, inhibitor | – | 0.5 µM, PTK5 | – | inhibition | 99%
C[C@@H](O)[C@@H]1NC(=O)[C@H](Cc2ccccc2)NC(=O)[C@@H](Cc2ccccc2)NC(=O)[C@H]([C@@H](C)O)NC(=O)[C@@H](CCCCN)NC(=O)[C@H](CC(=O)O)NC1=O | Naegleria fowleri | – | – | trophozoites | – | IC50 | > 16 µg/mL
CCC(c1ccccc1)c1nn2c(-c3cccs3)nnc2s1 (stereo not drawn) | Plasmodium falciparum | parasite growth, SYBR Green | 3D7 wild type | 72 h | – | EC50 | 0.116 ± 0.071 µM

Repeated from above:
SMILES | tested on | test | test system | setting | scale | quantity | result
NCCCC[C@@H]1NC(=O)[C@@H](CCCN)NC(=O)[C@@H](Cc2ccccc2)NC(=O)[C@H](Cc2ccccc2)NC(=O)CNC1=O | Naegleria fowleri | – | – | trophozoites | – | IC50 | > 16 µg/mL
C[C@@H]1CC[C@H]2[C@@H](C)C(=O)O[C@@H]3O[C@@]4(C)CC[C@@H]1[C@]32OO4 | Plasmodium falciparum | – | GB4 | – | – | IC50 | 0.005 µM
